Assay results collected from several papers.
Lines come from different studies, so protocols differ. “And” joins repeats or separate records; there may be more than shown. ± gives the spread as reported. Values after ≈ are worked out from the molar mass of the structure shown.
Organism: Mycobacterium tuberculosis

`Nc1c2c(nc3sc4c(c13)CCCCC4)CCCC2` has an MIC50 of 1700 µM (≈ 463 µg/mL) (microbial growth).
With `COc1ccc(-c2nc(-c3cccc(NC(=O)Cc4ccc(F)cc4)c3)no2)cc1OC` the IC50 was 180 nM (bacterial growth, inhibitor; mmpL3-TetON).
`CCCc1ccc(-c2cccc(-c3nc4ccc5cc(C(=O)O)cc(O)c5c4[nH]3)c2)cc1` gave an IC50 of 8000 nM (resazurin; wild type; 168 h, nutrient-starved).
With `CN1CCN(c2ccc(C(F)(F)F)cc2NC(=O)c2ccccn2)CC1` the IC50 was 34100 nM (microbial growth).
The FIC index of `COc1ccc2ncc(F)c(C[C@H](O)[C@H]3OC[C@H](NCc4ccc5c(n4)NC(=O)CO5)CO3)c2c1` is reported as 1 (growth inhibition, checkerboard; H37Rv; added: bedaquiline).
For `Cc1nc2cc(OC(F)(F)F)ccn2c1C(=O)NCc1ccc2oc(-c3ccc(Cl)cc3)nc2c1`, the MIC90 was over 10 µM (microbial growth; H37RV).
`COc1ccc2nccc(CC[C@H]3OC[C@H](NC(=O)c4ccc5c(c4)NC(=O)CO5)CO3)c2c1` has an FIC index of 1 (growth inhibition, checkerboard; H37Rv; added: bedaquiline).
With `Cc1ccn2c(C(=O)NCc3ccccc3)c(C)nc2c1` the MIC90 was 2.5 µM (≈ 0.698 µg/mL) (microbial growth; H37RV).
`COc1ccccc1-c1ccc(OCCc2cccc(F)c2)c(C(N)=O)c1` has a selectivity index of over 1 (H37Rv-LP; relative to: HepG2 CC50 over Mtb IC90).
With `C#CCN(Cc1ccc2[nH]c(C)nc(=O)c2c1)c1ccc(C(=O)N[C@@H](CCC(=O)O)C(=O)O)cc1` the MIC90 was over 100 µM (bacterial growth, inhibitor; H37Rv pptT conditional knockdown; PptT depleted, ATc withheld).
With `Cc1ccc(C2CC(C(F)(F)F)n3ncc(C(=O)NCc4ccc5c(c4)OCO5)c3N2)cc1` (centres unmarked) the IC50 was 330 nM (microbial growth).
`Cc1nc2cc(C(F)(F)F)ccn2c1C(=O)NCc1ccc2oc(-c3ccc(Cl)cc3)nc2c1` gave an MIC90 of 0.156 µM (≈ 0.0756 µg/mL) (microbial growth; H37RV).
`Cc1ccccc1/C=C/C(=O)N[C@@H](CO)C(=O)N[C@H](C(=O)N[C@H](Cc1ccccc1)C(=O)N[C@@H]1C(=O)N2[C@@H](CC(=O)O)C(=O)Nc3ccccc3[C@@]2(O)[C@@H]1O)[C@@H](C)O`: MIC50 “inactive” (mc2 6230; 5 days, 37 °C).
`Cc1cc(Oc2nc(N3CC[C@@H](c4ccncc4)C3)ncc2F)[nH]n1` gave a normalised growth of 100% and 101% and 98% (OD; H37Rv PurF CRISPRi knockdown; 0.000122 µM, added: anhydrotetracycline low).
The MIC of `CCOc1cc(/C=N/NC(=S)Nc2cccc(Cl)c2)ccc1OC(=O)CN1C(=O)CSC1=O` is reported as 31.6 µM (microbial growth, resazurin; H37RV).
The MIC90 of `CCc1nc2ccc(C(F)(F)F)cn2c1C(=O)NCc1ccc2oc(-c3ccc(OC(F)(F)F)cc3)nc2c1` is reported as over 25 µM (microbial growth; H37RV).
For `NC(=O)c1cc(C(F)F)ccc1OCCc1cccc(F)c1`, the selectivity index was 4 (H37Rv-LP; relative to: HepG2 CC50 over Mtb IC90).
With `CCOc1cc(C=NNC(=O)c2ccncc2)ccc1OC(=O)CN1C(=O)CSC1=O.NNC(=O)c1ccncc1` the FICI was 0.724 (two-drug checkerboard; H37Rv; concentration not given, unit not given; lower means more synergy).
`C#CCN(Cc1ccc2nc(C)[nH]c(=O)c2c1)c1ccc(C(=O)N[C@H](CCC(=O)OC)C(=O)OC)cc1` has an MIC90 of over 100 µM (bacterial growth, inhibitor; H37Rv wild type).
For `NC(=O)c1cc(-c2ccco2)ccc1OCCc1cccc(F)c1`, the selectivity index was 71 (H37Rv-LP; relative to: HepG2 CC50 over Mtb IC90).
`NNC(=O)c1ccncc1.O=C(CN1C(=O)CSC1=O)Oc1ccc(C=NNC(=S)Nc2cccc(Cl)c2)cc1Cl` has an MIC of 0.0156 µg/mL (growth in combination; H37Rv; added: reference drug at 1/2 MIC).
For `NC(=O)c1cc(-c2cccnc2)ccc1OCCc1cccc(F)c1`, the selectivity index was 5 (H37Rv-LP; relative to: HepG2 CC50 over Mtb IC90).
The IC50 of `Clc1ccc(Nc2nc(-c3ccccn3)cs2)nc1` is reported as 990 nM (bacterial growth, inhibitor; mmpL3-TetON).
With `NC(=O)c1cc(C2=CCOC2)ccc1OCCc1cccc(F)c1` the IC90 was 1800 ± 1100 nM (growth; H37Rv-LP; 120 h).
With `COc1ccc(-c2ccc(Nc3cccc(S(=O)(=O)CCNCCc4cccs4)c3)nc2)cn1` the IC50 was 27900 nM (microbial growth).
`Cc1nc2ccc(C(F)(F)F)cn2c1C(=O)NCc1ccc2oc(-c3ccc(OC(F)(F)F)cc3)nc2c1` gave an MIC90 of over 25 µM (microbial growth; H37RV).
The IC50 of `O=C(Nc1ccc(F)c(F)c1F)NC12CC3CC(CC(C3)C1)C2` is reported as 10 nM (bacterial growth, inhibitor; mmpL3-TetON).
`CCc1nc2ccccn2c1C(=O)NCc1ccc2oc(-c3ccc(OC(F)(F)F)cc3)nc2c1` gave an MIC90 of over 25 µM (microbial growth; H37RV).
For `NC(=O)c1cc(-c2ccoc2)ccc1OCCc1cccc(F)c1`, the IC90 was 410 ± 230 nM (growth; H37Rv-LP; 120 h).
`COc1ccc(CC(=O)Nc2c(-c3cccs3)nc3cc(C)ccn23)cc1` has an IC50 of 4910 nM (bacterial growth, inhibitor; mmpL3-TetON).
With `Cc1c(-c2ccc(N3CCCCC3)cc2)[nH]c2cc(F)cc(F)c2c1=O` the IC90 was 850 nM (microbial growth; H37RV).
The MIC90 of `CCc1nc2cc(Br)ccn2c1C(=O)NCc1ccc2oc(-c3ccc(Cl)cc3)nc2c1` is reported as over 10 µM (microbial growth; H37RV).
`CCOc1cc(C=NNC(=O)c2cccnc2)ccc1OC(=O)CN1C(=O)CSC1=O.NNC(=O)c1ccncc1` has an MIC of 0.0312 µg/mL (growth in combination; 192; added: reference drug at 1/2 MIC).
`COc1ccc2c(=O)c(C)c(-c3ccc(N4CCCCC4)cc3)[nH]c2c1` has a kill rate of 0.04 h⁻¹ (time-kill; H37Rv; concentration not given, 7 days).
`O=C(CN1C(=O)CSC1=O)Oc1ccc(/C=N/NC(=O)c2ccncc2)cc1` has an MIC of 0.157 µM (Alamar blue; 192).
With `COc1ccc(CCNC(=O)C2(n3cnnn3)CCCCC2)cc1` the IC50 was 320 nM (bacterial growth, inhibitor; mmpL3-TetON).
For `COc1cc(C=NNC(=O)c2ccncc2)ccc1OC(=O)CN1C(=O)CSC1=O.NNC(=O)c1ccncc1`, the FICI was 2 (two-drug checkerboard; H37Rv; concentration not given, unit not given; lower means more synergy).
The MIC90 of `Cc1nc2ccc(C(F)(F)F)cn2c1C(=O)NCc1ccc2oc(-c3ccc(Cl)cc3)nc2c1` is reported as over 10 µM (microbial growth; H37RV).

A few entries again:
With `COc1ccc(-c2nc(-c3cccc(NC(=O)Cc4ccc(F)cc4)c3)no2)cc1OC` the IC50 was 180 nM (bacterial growth, inhibitor; mmpL3-TetON).
`CCCc1ccc(-c2cccc(-c3nc4ccc5cc(C(=O)O)cc(O)c5c4[nH]3)c2)cc1` gave an IC50 of 8000 nM (resazurin; wild type; 168 h, nutrient-starved).
With `CN1CCN(c2ccc(C(F)(F)F)cc2NC(=O)c2ccccn2)CC1` the IC50 was 34100 nM (microbial growth).
The FIC index of `COc1ccc2ncc(F)c(C[C@H](O)[C@H]3OC[C@H](NCc4ccc5c(n4)NC(=O)CO5)CO3)c2c1` is reported as 1 (growth inhibition, checkerboard; H37Rv; added: bedaquiline).
For `Cc1nc2cc(OC(F)(F)F)ccn2c1C(=O)NCc1ccc2oc(-c3ccc(Cl)cc3)nc2c1`, the MIC90 was over 10 µM (microbial growth; H37RV).
`COc1ccc2nccc(CC[C@H]3OC[C@H](NC(=O)c4ccc5c(c4)NC(=O)CO5)CO3)c2c1` has an FIC index of 1 (growth inhibition, checkerboard; H37Rv; added: bedaquiline).
